Measurements gathered from unrelated publications.
Every numbered part comes from another study and shows a few of its results, in no order. Several values in a cell are separate wells, animals, samples, runs or records.

Series 1
Method: logD(dd/w) and ALogP
Notes: MRN method
`CC(C)C[C@@H]1NC(=O)[C@H](Cc2ccc(O)cc2)N(C)C(=O)[C@H]2CCCN2C(=O)[C@H](CC(C)C)NC(=O)[C@H](C)N(C)C(=O)[C@@H](C)N(C)C1=O` — result for “lipophilic permeability efficiency”: 1.53.
`CC(C)C[C@@H]1NC(=O)[C@H](Cc2ccc(O)cc2)N(C)C(=O)[C@H]2CCCN2C(=O)[C@H](CC(C)C)NC(=O)[C@H](CC(C)C)N(C)C(=O)[C@@H](C)N(C)C1=O` — result for “lipophilic permeability efficiency”: 1.68.
`CC(C)C[C@@H]1NC(=O)[C@H](C)N(C)C(=O)[C@H]2CCCN2C(=O)[C@H](CC(C)C)NC(=O)[C@H](C)N(C)C(=O)[C@@H](CC(C)C)N(C)C1=O`: “lipophilic permeability efficiency” 3.88.
`CC(C)C[C@@H]1NC(=O)[C@H](C)N(C)C(=O)[C@H]2CCCN2C(=O)[C@H](CC(C)C)NC(=O)[C@H](CC(C)C)N(C)C(=O)[C@@H](CC(C)C)N(C)C1=O`: “lipophilic permeability efficiency” 3.79.
For `CC[C@H]1NC(=O)[C@H](CC(C)C)NC(=O)[C@H](Cc2ccccc2)NC(=O)[C@H]2CCCN2C(=O)[C@H](CC2CCCCC2)NC(=O)[C@H](CC2CCCCC2)NC1=O`, “lipophilic permeability efficiency” read 1.75.
`CC[C@@H]1C(=O)N(C)[C@@H](C)C(=O)N[C@@H](CC(C)C)C(=O)N2CCC[C@@H]2C(=O)N(C)[C@@H](C)C(=O)N[C@@H](CC(C)C)C(=O)N1C` — result for “lipophilic permeability efficiency”: 3.57.
Under “lipophilic permeability efficiency”, `CC(C)C[C@@H]1NC(=O)[C@H](Cc2ccc(O)cc2)NC(=O)[C@H]2CCCN2C(=O)[C@H](CC2CCCCC2)NC(=O)[C@H](CC2CCCCC2)NC(=O)[C@@H](C)NC1=O` is recorded as 0.22.
`CC[C@@H]1C(=O)N(C)[C@@H](CC(C)C)C(=O)N[C@@H](CC(C)C)C(=O)N2CCC[C@@H]2C(=O)N(C)[C@@H](CC2CCCCC2)C(=O)N[C@@H](CC(C)C)C(=O)N1C`: “lipophilic permeability efficiency” 3.52.
Under “lipophilic permeability efficiency”, `CC(C)C[C@@H]1NC(=O)[C@H](Cc2ccc(O)cc2)NC(=O)[C@H]2CCCN2C(=O)[C@H](CC(C)C)NC(=O)[C@H](CC2CCCCC2)NC(=O)[C@@H](CC(C)C)NC1=O` is recorded as -0.188.
Under “lipophilic permeability efficiency”, `CC(C)C[C@@H]1NC(=O)[C@H](Cc2ccccc2)N(C)C(=O)[C@H]2CCCN2C(=O)[C@H](CC(C)C)NC(=O)[C@H](C)N(C)C(=O)[C@@H](CC(C)C)N(C)C1=O` is recorded as 3.72.
`CCC[C@@H]1C(=O)N(C)[C@@H](CC2CCCCC2)C(=O)N[C@@H](CC2CCCCC2)C(=O)N2CCC[C@@H]2C(=O)N(C)[C@@H](Cc2ccc(O)cc2)C(=O)N[C@@H](CC(C)C)C(=O)N1C`: “lipophilic permeability efficiency” 1.06.

Series 2
Organism: Sarcocystis neurona
Observed: parasite growth
Tested at: 10 µM
Time: 96 h
Notes: second screen
Baseline: untreated
Under “log2 fold change”, `Clc1ccc(COC(Cn2ccnc2)c2ccc(Cl)cc2Cl)c(Cl)c1` (stereo not drawn) is recorded as -1.15.
For `CC(=O)/N=c1/sc(S(N)(=O)=O)nn1C`, “log2 fold change” read 0.43.
Under “log2 fold change”, `NC12CC3CC(CC(C3)C1)C2` is recorded as 0.27.
`CC(=O)[C@@]1(O)CC[C@H]2[C@@H]3C[C@H](C)C4=CC(=O)C=C[C@]4(C)[C@@]3(F)[C@@H](O)C[C@@]21C`: “log2 fold change” 0.61.
For `CC(=O)OCC(=O)[C@@]12OC(C)(C)O[C@@H]1C[C@H]1[C@@H]3C[C@H](F)C4=CC(=O)C=C[C@]4(C)[C@@]3(F)[C@@H](O)C[C@@]12C`, “log2 fold change” read 0.65.
Under “log2 fold change”, `NS(=O)(=O)Cc1noc2ccccc12` is recorded as 0.13.
Under “log2 fold change”, `CC1(C)O[C@@H]2C[C@H]3[C@@H]4C[C@H](F)C5=CC(=O)C=C[C@]5(C)[C@H]4[C@@H](O)C[C@]3(C)[C@]2(C(=O)CO)O1` is recorded as 0.4.
Under “log2 fold change”, `CN(C)[C@@H]1C(O)=C(C(N)=O)C(=O)[C@@]2(O)C(O)=C3C(=O)c4c(O)cccc4[C@@](C)(O)[C@H]3C[C@@H]12` is recorded as 0.39.
`CC(=O)Nc1ccc(CC(=O)O)cc1` — result for “log2 fold change”: 0.29.
For `Nc1ccc(O)c(C(=O)O)c1`, “log2 fold change” read 0.3.
`C[C@H]1C[C@H]2[C@@H]3CCC4=CC(=O)C=C[C@]4(C)[C@@]3(F)[C@@H](O)C[C@]2(C)[C@@]1(O)C(=O)CO` — result for “log2 fold change”: 0.59.
`C#C[C@]1(O)CC[C@H]2[C@@H]3CCC4=CC(=O)CC[C@@H]4[C@H]3CC[C@@]21C`: “log2 fold change” -0.07.
For `COc1cc(C)nc(-n2nc(C)cc2OC)n1`, “log2 fold change” read 0.09.
`Cc1ncc([N+](=O)[O-])n1CC(O)CCl` (stereo not drawn) — result for “log2 fold change”: 0.18.

Series 3
Cell line: normal adjacent epithelium patient-derived organoids
Method: CellTiter-Glo
Tested at: 0.1 µM
Notes: mean of five organoid lines
Baseline: DMSO
With `O=C(NCc1ncc(C(F)(F)F)cc1Cl)c1ccc2c(c1)C1(CCS(=O)(=O)CC1)[C@H](C1CC1)N2S(=O)(=O)c1ccc(F)cc1` the viability was 105%.
`Cc1nc(Cc2cccc(C(F)(F)F)c2)sc1-c1ccc(C(N)=O)nc1` has a viability of 102%.
`O=C(Nc1ccc(Oc2ccc(F)cc2)cc1)N1CCc2ncccc2[C@H]1c1ccc(F)cc1` gave a viability of 111%.
`O=C(N[C@H]1CCCCC/C=C\C2C[C@@]2(C(=O)O)NC(=O)[C@@H]2C[C@@H](Oc3ccncc3)CN2C1=O)OC1CCCC1` (stereo partly drawn) has a viability of 110%.
For `CCOC(=O)c1cc2cc(-c3cc(C(=O)NCc4ccc(C(=O)O)cc4)nn3C)ccc2[nH]1`, the viability was 104%.
`CNC(=O)c1ccc(Nc2ncc(C(F)(F)F)c(NCc3nccnc3N(C)S(C)(=O)=O)n2)cc1` has a viability of 96.9%.
With `COCCOc1nc(-c2ccc(Cl)nc2)nc2c1CN(C(=O)c1ncn3ccccc13)CC2` the viability was 116%.
With `O[C@]1(C(F)(F)F)CCCC[C@H]1Nc1ccc(F)cc1` the viability was 102%.
`O=C(NCCCC1CCCCC1)c1ccc(CNC(=O)c2cnn(-c3ccccc3)c2C(F)(F)F)cc1` has a viability of 113%.
The viability of `COc1cc(N[C@@H]2CCCC[C@]2(O)C(F)(F)F)ccc1F` is reported as 113%.
`Nc1cnc(N2CCc3cc(S(=O)(=O)Nc4c(F)cc(Cl)cc4F)cc(N4CCCC4=O)c32)nc1` has a viability of 112%.
The viability of `O=C(O)[C@H]1[C@H](Cn2nnc3ccccc3c2=O)CC[C@@H]1C(=O)c1ccc(OCCC2CCOCC2)cc1` is reported as 120%.
With `CCCOc1ccc([C@@H]2[C@@H](C(=O)O)[C@H](c3ccc4c(c3)OCO4)CN2CC(=O)Nc2c(CC)cccc2CC)cc1` the viability was 114%.
`Cc1cc(C)c(-n2ccn3nc(-c4cccnc4)cc23)cc1NC(=O)c1cc(C#N)cc(S(F)(F)(F)(F)F)c1` has a viability of 103%.
For `CN1C(=O)[C@@H](N2CCc3c(nn(Cc4ccccc4)c3Br)C2=O)COc2ccccc21`, the viability was 118%.
For `CN(C)C(=O)Cn1cc(-c2nc([C@@](C)(c3ccc(-c4cnc(N)nc4)cc3)C3CC3)no2)cn1`, the viability was 101%.
`CN1C(=O)[C@@H](N2CCc3cn(Cc4ccccc4)nc3C2=O)COc2ccccc21` has a viability of 122%.
`CC(C)(C)OC(=O)N1CCCC1CNC1CCC(c2cc(F)ccc2F)(S(=O)(=O)c2ccc(Cl)cc2)CC1` (stereo not drawn) gave a viability of 102%.
`CCS(=O)(=O)c1cc2cc(C[C@@](O)(CC(C)(C)c3ccc(F)cc3C(N)=O)C(F)(F)F)[nH]c2cn1` has a viability of 113%.

Series 4
Structure (SMILES): CC(C)(C)c1cnc(CSc2cnc(NC(=O)C3CCNCC3)s2)o1
Species: nude mouse, HH xenograft
Dose: dose not given
The tumour volume was 117 mm³ and 104 mm³ and 115 mm³ and 31.2 mm³ and 34.2 mm³ and 11 mm³ and 181 mm³ and 27.2 mm³ (day 13).
The tumour volume was 46.4 mm³ and 23.4 mm³ and 53.2 mm³ and 18 mm³ and 45.6 mm³ and 57.6 mm³ and 142 mm³ and 27.2 mm³ (day 6).
The tumour volume was 123 mm³ and 259 mm³ and 240 mm³ and 20.2 mm³ and 27.6 mm³ and 48.7 mm³ and 36 mm³ and 171 mm³ (day 17).
It gave 28.2 mm³ and 0 mm³ and 67.9 mm³ and 55.3 mm³ and 22.6 mm³ and 30.6 mm³ and 110 mm³ and 5.32 mm³ for tumour volume (day 11).

A few entries again (series 4):
The tumour volume was 123 mm³ and 259 mm³ and 240 mm³ and 20.2 mm³ and 27.6 mm³ and 48.7 mm³ and 36 mm³ and 171 mm³ (day 17).
The tumour volume was 117 mm³ and 104 mm³ and 115 mm³ and 31.2 mm³ and 34.2 mm³ and 11 mm³ and 181 mm³ and 27.2 mm³ (day 13).
